Values quoted from earlier work as cited in several papers.
Protocols differ between the studies behind these lines. ± gives the spread as reported.
HLA class I histocompatibility antigen, B alpha chain allele B*39:01: HLA class I histocompatibility antigen, B alpha chain, allele B*39:01 (Homo sapiens, UniProt P01889)

LNTVATLY  IC50 (HLA class I histocompatibility antigen, B alpha chain allele B*39:01; peptide-MHC binding; peptide): > 20 µM
Cc1cccc(-c2[nH]c(CNc3ccccc3F)nc2-c2ccc3ncnn3c2)n1  MTD (rat; oral, 14 days, non-GLP dose-range study): 80 mg/kg/day
FMKSRVYSI  IC50 (HLA class I histocompatibility antigen, B alpha chain, allele B*08:02 (Homo sapiens, UniProt P01889); peptide-MHC binding; peptide): 0.041 µM
C[C@@H](N)C1CCN(S(=O)(=O)c2cccc3cnccc23)CC1  NOAEL (monkey): 40 mg/kg/day
HHIWQNLL  IC50 (HLA class I histocompatibility antigen, B alpha chain allele B*39:01; peptide-MHC binding; peptide): 0.136 µM
Cc1ccc(-c2nc3ccc(C)cn3c2CC(=O)N(C)C)cc1  CLint, scaled (liver microsomes 0.5 mg/mL; 1 µM): 12.5 mL/min/kg
WEAWWTEY  IC50 (HLA class I histocompatibility antigen, B alpha chain, allele B*18:01 (Homo sapiens, UniProt P01889); peptide-MHC binding; peptide): 0.00204 µM
C[N+](C)(C)[C@@H](Cc1c[nH]c(=S)[nH]1)C(=O)[O-]  Ka (EgtU substrate-binding domain R454A; binding, isothermal titration calorimetry): 137000 ± 28000 M⁻¹
